Published values of several laboratories.
Each line is one published result; not all experiments were run side by side. Numbers after ± are the reported error.

test = UPLC-MS/MS; test system = Wistar rat, microcirculation dysfunction model, plasma; conditions = oral, 100 mg/kg Salvia miltiorrhiza stem-leaf extract FT; Tmax = 1.31 ± 1.35 h; Compound = C[C@@H]1O[C@@H](OC[C@H]2O[C@@H](Oc3c(-c4ccc(O)c(O)c4)oc4cc(O)cc(O)c4c3=O)[C@H](O)[C@@H](O)[C@@H]2O)[C@H](O)[C@H](O)[C@H]1O
test system = Sprague Dawley rat, male, plasma; conditions = oral, 86 mg/kg, frozen ginseng extract; Tmax = 8 ± 1.2 h; Compound = CC(C)=CCC[C@](C)(O[C@@H]1O[C@H](CO[C@@H]2O[C@H](CO)[C@@H](O)[C@H](O)[C@H]2O)[C@@H](O)[C@H](O)[C@H]1O)[C@H]1CC[C@]2(C)[C@@H]1[C@H](O)C[C@@H]1[C@@]3(C)CC[C@H](O[C@@H]4O[C@H](CO)[C@@H](O)[C@H](O)[C@H]4O[C@@H]4O[C@H](CO)[C@@H](O)[C@H](O)[C@H]4O)C(C)(C)[C@@H]3CC[C@]12C
test system = rat, plasma; conditions = oral, 30 mg/kg, with: resveratrol 20 mg/kg oral; Tmax = ~0.25 h; Compound = CC(C)(C)NC(=O)[C@@H]1C[C@@H]2CCCC[C@@H]2CN1C[C@@H](O)[C@H](Cc1ccccc1)NC(=O)[C@H](CC(N)=O)NC(=O)c1ccc2ccccc2n1
test system = Sprague Dawley rat, male, plasma; conditions = oral, 42 mg/kg, mixture of pure ginsenosides; Tmax = 0.25 ± 0.04 h; Compound = CC(C)=CCC[C@](C)(O[C@@H]1O[C@H](CO)[C@@H](O)[C@H](O)[C@H]1O)[C@H]1CC[C@]2(C)[C@@H]1[C@H](O)C[C@@H]1[C@@]3(C)CC[C@H](O[C@@H]4O[C@H](CO)[C@@H](O)[C@H](O)[C@H]4O[C@@H]4O[C@H](CO)[C@@H](O)[C@H](O)[C@H]4O)C(C)(C)[C@@H]3CC[C@]12C
test system = Crl:WI(Han) rat, juvenile male, plasma; conditions = oral gavage, 0.1 mg/kg/day, postnatal day 17; Tmax = 3 h; Compound = CCN1CCN(c2ccc(Nc3cc(N(C)C(=O)Nc4c(Cl)c(OC)cc(OC)c4Cl)ncn3)cc2)CC1
test = UPLC-MS/MS; test system = Wistar rat, microcirculation dysfunction model, plasma; conditions = oral, 100 mg/kg Salvia miltiorrhiza stem-leaf extract FT; Tmax = 0.67 ± 0.37 h; Compound = O=C(O)/C=C/c1ccc(O)c(O)c1
test system = CD Sprague Dawley rat, female, plasma; conditions = subcutaneous, 1.0 mg/kg daily, day 1; Tmax = 0.5 h; Compound = CCCC[C@H](NC(C)=O)C(=O)N[C@H]1CCC(=O)NC[C@@H](C(=O)N[C@@H](Cc2c[nH]c3ccccc23)C(N)=O)NC(=O)[C@H](CCCNC(=N)N)NC(=O)[C@@H](Cc2ccccc2)NC(=O)[C@H](Cc2c[nH]cn2)NC1=O
test system = Sprague Dawley rat, male, plasma; conditions = oral, 25 mg/kg, red ginseng extract; Tmax = 12.8 ± 2.1 h; Compound = CC(C)=CCC[C@](C)(O[C@@H]1O[C@H](CO)[C@@H](O)[C@H](O)[C@H]1O)[C@H]1CC[C@]2(C)[C@@H]1[C@H](O)C[C@@H]1[C@@]3(C)CC[C@H](O)C(C)(C)[C@@H]3[C@@H](O[C@@H]3O[C@H](CO)[C@@H](O)[C@H](O)[C@H]3O)C[C@]12C
test system = Long Evans rat, sclera/choroid; conditions = topical, 1%; Tmax = 1 h; Compound = Cc1cc(-c2cc(OC(=O)c3ccccc3)ccc2Cl)cc2nnc(Nc3ccc(OCCN4CCCC4)cc3)nc12
test system = male Sprague Dawley rat, control, plasma; conditions = oral, 2.5 mg/kg, median, with: silymarin 500 mg/kg oral; Tmax = 1 h; Compound = O=C(O)C[C@H](O)C[C@H](O)/C=C/c1c(C2CC2)nc2ccccc2c1-c1ccc(F)cc1
test = UPLC-MS/MS; test system = Wistar rat, microcirculation dysfunction model, plasma; conditions = oral, 100 mg/kg Salvia miltiorrhiza stem-leaf extract FS; Tmax = 0.7 ± 0.71 h; Compound = O=C(/C=C/c1ccc(O)c(O)c1/C=C/c1ccc(O)c(O)c1)O[C@H](Cc1ccc(O)c(O)c1)C(=O)O
test system = male athymic rat, intracranial U87 glioma, tumour extracellular fluid; conditions = oral, 50 mg/kg, recovery-corrected microdialysis, median, with: after cediranib; Tmax = 1.5 h; Compound = Cn1nnc2c(C(N)=O)ncn2c1=O
test = UPLC-MS/MS; test system = Wistar rat, microcirculation dysfunction model, plasma; conditions = oral, 100 mg/kg Salvia miltiorrhiza stem-leaf extract FT; Tmax = 0.42 ± 0.33 h; Compound = O=C(/C=C/c1ccc(O)c(O)c1)O[C@H](Cc1ccc(O)c(O)c1)C(=O)O
test system = Sprague-Dawley rat, plasma; conditions = oral, 100 mg/kg of parent ginsenoside, control group, no prebiotic; Tmax = 8 ± 2 h; Compound = CC(C)=CCC[C@](C)(O[C@@H]1O[C@H](CO)[C@@H](O)[C@H](O)[C@H]1O)[C@H]1CC[C@]2(C)[C@@H]1[C@H](O)C[C@@H]1[C@@]3(C)CC[C@H](O[C@@H]4O[C@H](CO)[C@@H](O)[C@H](O)[C@H]4O)C(C)(C)[C@@H]3CC[C@]12C
test system = rat, Wistar, male, plasma; conditions = oral, 60 mg/kg; Tmax = 3.8 ± 1.35 h; Compound = CCN(CC)Cc1cc(Nc2ccnc3cc(Cl)ccc23)ccc1O
test system = Sprague-Dawley rat, male, plasma; conditions = oral, 10 mg/kg; Tmax = 4.6 ± 2.41 h; Compound = C=CC(=O)Nc1cc(Nc2nccc(-c3cn(C)c4ccccc34)n2)c(OC)cc1N(C)CCN(C)C
test system = Sprague Dawley rat, male, plasma; conditions = oral, 45 mg/kg, white ginseng extract; Tmax = 0.08 ± 0.02 h; Compound = CC(C)=CCC[C@](C)(O[C@@H]1O[C@H](CO)[C@@H](O)[C@H](O)[C@H]1O)[C@H]1CC[C@]2(C)[C@@H]1[C@H](O)C[C@@H]1[C@@]3(C)CC[C@H](O)C(C)(C)[C@@H]3[C@@H](O[C@@H]3O[C@H](CO)[C@@H](O)[C@H](O)[C@H]3O[C@@H]3O[C@@H](C)[C@H](O)[C@@H](O)[C@H]3O)C[C@]12C
test system = male Sprague-Dawley rat, whole blood; conditions = oral, 16.3 mg/kg, CMC vehicle; Tmax = ~7 h; Compound = CCc1oc2cc(OC)ccc2c1C(=O)c1cc(Br)c(O)c(Br)c1
test system = Sprague-Dawley rat, plasma; conditions = oral, 200 mg/kg ginseng extract, control diet 2 weeks before dosing; Tmax = 9.6 ± 5.3 h; Compound = CC(C)=CCC[C@](C)(O[C@@H]1O[C@H](CO)[C@@H](O)[C@H](O)[C@H]1O)[C@H]1CC[C@]2(C)[C@@H]1[C@H](O)C[C@@H]1[C@@]3(C)CC[C@H](O[C@@H]4O[C@H](CO)[C@@H](O)[C@H](O)[C@H]4O[C@@H]4O[C@H](CO)[C@@H](O)[C@H](O)[C@H]4O)C(C)(C)[C@@H]3CC[C@]12C
test system = male Sprague-Dawley rat (wild type), plasma; conditions = oral, 5 mg/kg; Tmax = 1.58 ± 0.86 h; Compound = O=C(O)C[C@H](O)C[C@H](O)/C=C/c1c(C2CC2)nc2ccccc2c1-c1ccc(F)cc1
test system = Sprague-Dawley rat, both sexes, plasma; conditions = oral, diet, 100 mg/kg/day, day 90; Tmax = 3 h; Compound = COc1cccc(-c2n[nH]c(SCc3ccccn3)n2)c1OC
test system = Sprague-Dawley rat, male, plasma; conditions = oral, 10 mg/kg, with: naringenin 10 mg/kg/day oral, 2 weeks; Tmax = 2.8 ± 0.45 h; Compound = O=C(NC[C@H]1CN(c2ccc(N3CCOCC3=O)cc2)C(=O)O1)c1ccc(Cl)s1
test system = female Sprague-Dawley rat, plasma; conditions = dietary, 30 mg/kg/day, day 7; Tmax = 0 h; Compound = Cc1nc2cccc(OCC(C)(C)C(=O)NC(C)C)c2c(N)c1C(=O)O
test system = Sprague-Dawley rat, pregnant female, plasma; conditions = oral, 30 mg/kg/day, gestation day 6; Tmax = 8 h; Compound = CS(=O)(=O)c1ccc(-c2cnc(N)c(-c3ccc(C(F)(F)F)nc3)c2)cc1
test = UPLC-MS/MS; test system = Wistar rat, microcirculation dysfunction model, plasma; conditions = oral, 100 mg/kg Salvia miltiorrhiza stem-leaf extract FT; Tmax = 1 ± 0.82 h; Compound = O=C(/C=C/c1ccc(O)c2c1[C@H](C(=O)O)[C@@H](c1ccc(O)c(O)c1)O2)O[C@H](Cc1ccc(O)c(O)c1)C(=O)O
test system = Sprague-Dawley rat, female, plasma; conditions = intraperitoneal, 5 mg/kg of dasatinib, with: dasatinib co-dosed; Tmax = 0.8 ± 0.69 h; Compound = CN(CCOc1ccc(CC2SC(=O)NC2=O)cc1)c1ccccn1 (stereo not shown)
test system = rat, plasma; conditions = oral, 10 mg/kg, with: sesamin 100 mg/kg; Tmax = 0.0683 ± 0.0317 h; Compound = O=C(O)Cc1ccccc1Nc1c(Cl)cccc1Cl
test system = moderate renal impairment patients, plasma; conditions = oral, 30 mg of apremilast; Tmax = 10 h; Compound = CCOc1cc([C@@H](CS(C)(=O)=O)N2C(=O)c3cccc(NC(C)=O)c3C2=O)ccc1O[C@@H]1O[C@H](C(=O)O)[C@@H](O)[C@H](O)[C@H]1O

For quick reference, copied from above:
test system = CD Sprague Dawley rat, female, plasma; conditions = subcutaneous, 1.0 mg/kg daily, day 1; Tmax = 0.5 h; Compound = CCCC[C@H](NC(C)=O)C(=O)N[C@H]1CCC(=O)NC[C@@H](C(=O)N[C@@H](Cc2c[nH]c3ccccc23)C(N)=O)NC(=O)[C@H](CCCNC(=N)N)NC(=O)[C@@H](Cc2ccccc2)NC(=O)[C@H](Cc2c[nH]cn2)NC1=O
test system = Sprague-Dawley rat, male, plasma; conditions = oral, 10 mg/kg, with: naringenin 10 mg/kg/day oral, 2 weeks; Tmax = 2.8 ± 0.45 h; Compound = O=C(NC[C@H]1CN(c2ccc(N3CCOCC3=O)cc2)C(=O)O1)c1ccc(Cl)s1
